{"data": "Measurements gathered from unrelated publications", "note": "Numbered parts are unrelated; each lists some results of a single study."}
{"data": "Study 1", "target": "Histone acetyltransferase KAT6A, winged helix 1, GST fusion (KAT6A, Homo sapiens, UniProt Q92794, residues 1-85)", "method": "protein binding microarray", "form": "double-stranded DNA, one strand shown", "medium": "in vitro", "concentration": "not given", "setting": "8-mer, flanks averaged, mean of 2 arrays, mostly near background", "baseline": "not given", "direction": "higher = stronger binding", "Target sequence (chain)": "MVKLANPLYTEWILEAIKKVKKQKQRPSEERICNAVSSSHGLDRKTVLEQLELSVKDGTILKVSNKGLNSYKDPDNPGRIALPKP"}
{"Sequence": "AAACCCAC", "E-score": -0.0506}
{"Sequence": "AGATCAGG", "E-score": -0.206}
{"Sequence": "AAAGCGTC", "E-score": 0.125}
{"Sequence": "CACTCAAA", "E-score": -0.192}
{"Sequence": "ACCTGTTA", "E-score": -0.255}
{"Sequence": "GACCGTCA", "E-score": 0.0817}
{"Sequence": "GCATTTCA", "E-score": -0.0943}
{"Sequence": "GGAAATAC", "E-score": -0.066}
{"Sequence": "CCTCCGTA", "E-score": 0.156}
{"Sequence": "ACACCTAG", "E-score": -0.146}
{"Sequence": "CCAATCCG", "E-score": 0.0812}
{"Sequence": "GAGACCAA", "E-score": -0.0576}
{"Sequence": "CTTCCCTC", "E-score": -0.12}
{"Sequence": "AGGTTCCA", "E-score": -0.153}
{"Sequence": "GGTCCTTA", "E-score": -0.0576}
{"Sequence": "AGGTGGCA", "E-score": -0.0859}
{"Sequence": "AAATGAAG", "E-score": -0.16}
{"Sequence": "AAAGGAAT", "E-score": -0.26}
{"Sequence": "CACGCTAA", "E-score": 0.104}
{"Sequence": "AGTTCGGC", "E-score": 0.0843}
{"Sequence": "AAAAGACA", "E-score": -0.117}
{"Sequence": "CCGTTGGA", "E-score": 0.107}
{"Sequence": "AATGCACC", "E-score": -0.164}
{"Sequence": "AGAAAAGG", "E-score": -0.239}
{"Sequence": "ATCGTCGG", "E-score": 0.157}
{"data": "Study 2", "target": "Sal-like protein 4, full length isoform A (SALL4, Homo sapiens, UniProt Q9UJQ4, residues 1-1053)", "method": "universal PBM", "form": "double-stranded DNA, one strand shown", "medium": "in vitro", "concentration": "600 nM", "setting": "8-mer, flanks averaged, mean of replicates", "direction": "higher = stronger binding", "sequence of UniProt Q9UJQ4 (whole entry, looked up)": "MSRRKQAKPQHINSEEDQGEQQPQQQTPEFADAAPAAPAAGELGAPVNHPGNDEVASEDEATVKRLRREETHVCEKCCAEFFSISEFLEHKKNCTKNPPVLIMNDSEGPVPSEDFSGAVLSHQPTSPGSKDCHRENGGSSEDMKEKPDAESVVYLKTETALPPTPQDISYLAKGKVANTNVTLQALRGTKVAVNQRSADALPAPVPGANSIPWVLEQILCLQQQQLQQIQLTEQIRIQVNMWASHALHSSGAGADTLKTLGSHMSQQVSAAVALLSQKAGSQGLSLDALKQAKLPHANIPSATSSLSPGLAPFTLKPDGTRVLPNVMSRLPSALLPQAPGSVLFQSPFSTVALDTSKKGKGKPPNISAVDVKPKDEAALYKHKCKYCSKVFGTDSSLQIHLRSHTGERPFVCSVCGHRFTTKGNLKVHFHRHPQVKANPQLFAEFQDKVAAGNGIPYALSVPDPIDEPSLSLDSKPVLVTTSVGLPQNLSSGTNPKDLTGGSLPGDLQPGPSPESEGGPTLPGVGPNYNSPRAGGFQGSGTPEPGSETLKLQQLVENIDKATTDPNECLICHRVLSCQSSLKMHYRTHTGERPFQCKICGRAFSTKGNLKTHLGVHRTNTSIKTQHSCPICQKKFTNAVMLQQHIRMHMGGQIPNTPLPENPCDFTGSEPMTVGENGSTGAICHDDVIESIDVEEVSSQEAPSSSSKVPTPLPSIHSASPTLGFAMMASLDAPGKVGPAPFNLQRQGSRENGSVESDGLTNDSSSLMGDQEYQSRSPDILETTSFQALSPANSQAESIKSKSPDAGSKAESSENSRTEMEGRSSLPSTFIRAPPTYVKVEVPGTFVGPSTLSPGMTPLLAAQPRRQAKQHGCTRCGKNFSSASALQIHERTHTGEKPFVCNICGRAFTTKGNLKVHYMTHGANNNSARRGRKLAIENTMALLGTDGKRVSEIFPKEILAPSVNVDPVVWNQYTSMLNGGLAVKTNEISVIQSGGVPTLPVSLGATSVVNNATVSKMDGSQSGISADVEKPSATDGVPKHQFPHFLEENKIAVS"}
{"Sequence": "ATTATAGC", "E-score": 0.21}
{"Sequence": "CGCTTAAG", "E-score": -0.153}
{"Sequence": "ACTGCAGA", "E-score": 0.0411}
{"Sequence": "CAGCAAAC", "E-score": -0.0935}
{"Sequence": "ATAGGTCC", "E-score": 0.0201}
{"Sequence": "CCCGACGA", "E-score": -0.00785}
{"Sequence": "CGTCGCAA", "E-score": -0.134}
{"Sequence": "CAACAGGG", "E-score": -0.191}
{"Sequence": "CTGTTGGA", "E-score": 0.0793}
{"Sequence": "CCAGGCGG", "E-score": -0.335}
{"Sequence": "CTCCATGC", "E-score": -0.155}
{"Sequence": "ATGCGCGG", "E-score": -0.286}
{"Sequence": "AGCAACAG", "E-score": 0.0232}
{"Sequence": "AACCAGGT", "E-score": -0.182}
{"Sequence": "AAACTTTA", "E-score": 0.246}
{"Sequence": "CTGCGGAC", "E-score": -0.291}
{"Sequence": "CTTGTTTC", "E-score": 0.0893}
{"Sequence": "ACATCGGG", "E-score": -0.337}
{"Sequence": "CTTCCATC", "E-score": -0.0926}
{"Sequence": "CGCTTCGC", "E-score": -0.224}
{"Sequence": "TCATCTCA", "E-score": 0.134}
{"Sequence": "TGGGCACA", "E-score": -0.187}
{"Sequence": "GCCGCACA", "E-score": -0.149}
{"Sequence": "AGCCGATG", "E-score": -0.257}
{"Sequence": "CCCGTGAA", "E-score": -0.0354}
{"data": "Study 3", "target": "Interferon regulatory factor 3, full length, phosphomimetic (IRF3, Homo sapiens, UniProt Q14653, residues 1-427, S386D/S396D/S398D/S402D/T404D/S405D)", "method": "protein-binding microarray", "form": "double-stranded DNA, one strand shown", "medium": "in vitro", "concentration": "2540 nM top", "setting": "60-bp whole probe", "with": "salmon DNA 0.4 mg/ml", "baseline": "random background probes", "direction": "higher = stronger binding", "constant ends, left off below": "GCCTAGCAC … GTCTTGATTCGCTTGACGCTGCTG", "Target sequence (chain)": "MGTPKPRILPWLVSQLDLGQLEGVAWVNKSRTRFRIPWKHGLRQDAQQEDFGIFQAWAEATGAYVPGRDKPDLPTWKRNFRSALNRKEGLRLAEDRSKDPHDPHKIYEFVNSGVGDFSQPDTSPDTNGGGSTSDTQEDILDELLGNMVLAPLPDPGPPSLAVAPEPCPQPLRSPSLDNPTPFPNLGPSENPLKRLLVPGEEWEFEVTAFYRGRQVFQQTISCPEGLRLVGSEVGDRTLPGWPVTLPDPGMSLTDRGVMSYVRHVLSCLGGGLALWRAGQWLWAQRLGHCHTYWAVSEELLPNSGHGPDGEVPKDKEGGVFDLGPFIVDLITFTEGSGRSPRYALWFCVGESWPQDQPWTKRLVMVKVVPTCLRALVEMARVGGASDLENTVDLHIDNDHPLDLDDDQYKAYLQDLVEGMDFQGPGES"}
{"Sequence": "GACGATCTCGGTTTCGGGACGTGCTAG", "fitted relative affinity [z-score]": 3.16}
{"Sequence": "TCAGATAACTTTTTTTTACTGTGCTAG", "fitted relative affinity [z-score]": 0.369}
{"Sequence": "TTAGAAATCGGGACTGGATTAGTGCTA", "fitted relative affinity [z-score]": -0.316}
{"Sequence": "GACGATTTCATTTCCGAGACGTGCTAG", "fitted relative affinity [z-score]": 3.23}
{"Sequence": "TTAGGTTTCGGACTGGCTTAGTGCTAG", "fitted relative affinity [z-score]": 4.26}
{"Sequence": "GACGGTTTCCTTTTCCTGAAGTGCTAG", "fitted relative affinity [z-score]": 10.9}
{"Sequence": "TTAGGTTCCCTTTTCCGTTAGTGCTAG", "fitted relative affinity [z-score]": 7.1}
{"Sequence": "GACGATTTCAGTTCCGCGACGTGCTAG", "fitted relative affinity [z-score]": 2.78}
{"Sequence": "TTAGGTTTCGGGTTGCGGTTAGTGCTA", "fitted relative affinity [z-score]": 4.32}
{"Sequence": "TCATTTATCAAATGTGGGACTGTGCTA", "fitted relative affinity [z-score]": 1.16}
{"Sequence": "TCAAGTTTTCCTCTGTCACTGTGCTAG", "fitted relative affinity [z-score]": 1.29}
{"Sequence": "CTTTGCCTCATCTTGCAGGTAGTGCTA", "fitted relative affinity [z-score]": 1.14}
{"Sequence": "GACGGTATCGGTCTCTGGACGTGCTAG", "fitted relative affinity [z-score]": 4.34}
{"Sequence": "TCAGATTTTTTTTCCTAACTGTGCTAG", "fitted relative affinity [z-score]": 1.72}
{"Sequence": "TCAATTTTCTGAATGCTACTGTGCTAG", "fitted relative affinity [z-score]": 1.43}
{"Sequence": "TTAGATATCGACTTTCGGTTAGTGCTA", "fitted relative affinity [z-score]": 1.48}
{"Sequence": "TCAGGTTTCCAATCAGCACTGTGCTAG", "fitted relative affinity [z-score]": 5.91}
{"Sequence": "GACGGACTGGACTCTGGGGACGTGCTA", "fitted relative affinity [z-score]": -0.594}
{"Sequence": "TCATTTTCCTCTGTCATACTGTGCTAG", "fitted relative affinity [z-score]": 2.96}
{"data": "Study 4", "target": "Protein C-ets-1 (ETS1, Homo sapiens, UniProt P14921, residues 1-441, K379A, full length assumed)", "method": "protein-binding microarray", "form": "double-stranded DNA, one strand shown", "medium": "in vitro", "concentration": "not given", "setting": "k-mer, scored over probes, only values ≥0.25", "direction": "higher = stronger binding", "sequence of UniProt P14921 (whole entry, unmodified, looked up)": "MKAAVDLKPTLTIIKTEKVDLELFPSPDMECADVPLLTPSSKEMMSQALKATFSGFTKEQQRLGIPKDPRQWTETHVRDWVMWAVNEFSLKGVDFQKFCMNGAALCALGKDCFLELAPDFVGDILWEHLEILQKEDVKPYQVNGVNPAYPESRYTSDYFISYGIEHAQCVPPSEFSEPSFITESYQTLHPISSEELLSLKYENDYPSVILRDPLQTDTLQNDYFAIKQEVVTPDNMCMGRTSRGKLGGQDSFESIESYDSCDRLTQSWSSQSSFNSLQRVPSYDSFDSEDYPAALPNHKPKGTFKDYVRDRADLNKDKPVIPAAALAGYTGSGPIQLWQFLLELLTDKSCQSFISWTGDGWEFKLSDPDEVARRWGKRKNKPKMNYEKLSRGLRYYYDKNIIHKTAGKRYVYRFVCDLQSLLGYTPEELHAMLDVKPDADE"}
{"Sequence": "CATATACA", "E-score": 0.294}
{"Sequence": "CTACCGGC", "E-score": 0.305}
{"Sequence": "TATATAAA", "E-score": 0.264}
{"Sequence": "AACATACT", "E-score": 0.256}
{"Sequence": "CATGTCAC", "E-score": 0.261}
{"Sequence": "AATACATG", "E-score": 0.313}
{"Sequence": "GGCCGGAA", "E-score": 0.364}
{"Sequence": "GCGACAAC", "E-score": 0.263}
{"Sequence": "ACATTGTC", "E-score": 0.268}
{"Sequence": "ACCGGTAG", "E-score": 0.421}
{"Sequence": "CGACCGGA", "E-score": 0.407}
{"Sequence": "CCCGGGTA", "E-score": 0.283}
{"Sequence": "CCGGTTAG", "E-score": 0.389}
{"Sequence": "TATACAGA", "E-score": 0.285}
{"Sequence": "AACTCACA", "E-score": 0.277}
{"Sequence": "TAACGGTA", "E-score": 0.264}
{"Sequence": "ATCTTGTA", "E-score": 0.252}
{"Sequence": "CCGGAAAA", "E-score": 0.378}
{"Sequence": "ATTGCCGG", "E-score": 0.31}
{"Sequence": "GGCCGGTA", "E-score": 0.328}
{"Sequence": "AACAATAC", "E-score": 0.259}
{"Sequence": "TCCCGGCA", "E-score": 0.274}
{"data": "Study 5", "target": "Ras GTPase-activating protein-binding protein 1, full length (G3BP1, Homo sapiens, UniProt Q13283)", "method": "RNA Bind-n-Seq", "form": "RNA", "medium": "in vitro", "concentration": "200 nM", "setting": "whole 134-nt RNA, ends assumed", "with": "150 mM LiCl", "baseline": "input library", "direction": "higher = stronger binding", "each molecule": "7-deaza-guanosine replaces G", "constant ends, left off below": "GGGAGUUCUACAGUCCGACGAUC … UGGAAUUCUCGGGUGUCAAGG", "sequence of UniProt Q13283 (whole entry, looked up)": "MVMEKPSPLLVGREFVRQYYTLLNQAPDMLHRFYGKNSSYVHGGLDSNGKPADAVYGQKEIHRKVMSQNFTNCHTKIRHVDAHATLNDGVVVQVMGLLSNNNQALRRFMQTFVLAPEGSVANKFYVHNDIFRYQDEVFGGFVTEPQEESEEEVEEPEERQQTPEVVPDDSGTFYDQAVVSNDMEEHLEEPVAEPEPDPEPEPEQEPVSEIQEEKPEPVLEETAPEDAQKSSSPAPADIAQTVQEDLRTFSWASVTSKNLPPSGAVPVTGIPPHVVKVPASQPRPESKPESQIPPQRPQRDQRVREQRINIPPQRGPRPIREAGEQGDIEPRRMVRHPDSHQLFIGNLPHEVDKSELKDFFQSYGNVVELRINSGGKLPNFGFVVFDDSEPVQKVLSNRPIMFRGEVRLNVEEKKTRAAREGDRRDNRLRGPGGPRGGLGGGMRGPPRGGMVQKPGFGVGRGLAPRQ"}
{"Sequence": "AGUCCUGUGCUACACAUCGUAUGUACCGAAUCGGUUUUGGGGUUUUGGGGUUUUGGGAAAGUAUUAUGUUACGCCGUUCGGAUCUGCACU", "log2 enrichment": -0.509}
{"Sequence": "GUCCUGUGCUACACAUCGUAUGUACCGAAUCGGUUUUUGGGGUUUUUGGGGUUUUUGGGAAAGUAUUAUGUUACGCCGUUCGGAUCUGCA", "log2 enrichment": -0.221}
{"Sequence": "AGUCCUGUGCUACACAUCGUAUGUACCGAAUCGGCCCCCGGCCCCCGGGCCCCCGGGGAAAGUAUUAUGUUACGCCGUUCGGAUCUGCAC", "log2 enrichment": 0.231}
{"Sequence": "UCCUGUGCUACACAUCGUAUGUACCGAAUCGGGGUGGGGAAAAAGGGGAAAAAAAGGGGAAAGUAUUAUGUUACGCCGUUCGGAUCUGCA", "log2 enrichment": -0.914}
{"Sequence": "UGGCCCUGGUGGCAUGCGGGGAGGAAGAGGUGGCCUCAUGGAUCGUGGUGGUCCCGGUGGAAUGUUCAGAGGUGGCCGUGGUGGCGACAG", "log2 enrichment": -0.147}
{"Sequence": "UCAAGUCCUGUGCUACACAUCGUAUGUACCGAAUCGGUUUUUUUGGUGGAAAGGAAAGUAUUAUGUUACGCCGUUCGGAUCUGCACUUCC", "log2 enrichment": -0.116}
{"Sequence": "UUGUCCCGGAUGGGCAGCCUGCGGGCUCCCGUGGACGAGGACCGCCUGUCCCCGCUGGUGGCGGCCGACUCGCUCCUGGAGCAUGUGCGG", "log2 enrichment": -0.411}
{"Sequence": "UAACUUUAGAGGAGGAUCUGAUGGAUAUGGCAGUGGACGUGGAUUUGGGGAUGGCUAUCAUGGGUAUGGAGGAGGACCUGGAGGUGGCAA", "log2 enrichment": -0.194}
{"note": "For quick reference, copied from above (study 5):"}
{"Sequence": "AGUCCUGUGCUACACAUCGUAUGUACCGAAUCGGUUUUGGGGUUUUGGGGUUUUGGGAAAGUAUUAUGUUACGCCGUUCGGAUCUGCACU", "log2 enrichment": -0.509}
{"Sequence": "GUCCUGUGCUACACAUCGUAUGUACCGAAUCGGUUUUUGGGGUUUUUGGGGUUUUUGGGAAAGUAUUAUGUUACGCCGUUCGGAUCUGCA", "log2 enrichment": -0.221}
{"Sequence": "AGUCCUGUGCUACACAUCGUAUGUACCGAAUCGGCCCCCGGCCCCCGGGCCCCCGGGGAAAGUAUUAUGUUACGCCGUUCGGAUCUGCAC", "log2 enrichment": 0.231}
{"Sequence": "UCCUGUGCUACACAUCGUAUGUACCGAAUCGGGGUGGGGAAAAAGGGGAAAAAAAGGGGAAAGUAUUAUGUUACGCCGUUCGGAUCUGCA", "log2 enrichment": -0.914}
{"Sequence": "UGGCCCUGGUGGCAUGCGGGGAGGAAGAGGUGGCCUCAUGGAUCGUGGUGGUCCCGGUGGAAUGUUCAGAGGUGGCCGUGGUGGCGACAG", "log2 enrichment": -0.147}
{"Sequence": "UCAAGUCCUGUGCUACACAUCGUAUGUACCGAAUCGGUUUUUUUGGUGGAAAGGAAAGUAUUAUGUUACGCCGUUCGGAUCUGCACUUCC", "log2 enrichment": -0.116}
{"Sequence": "UUGUCCCGGAUGGGCAGCCUGCGGGCUCCCGUGGACGAGGACCGCCUGUCCCCGCUGGUGGCGGCCGACUCGCUCCUGGAGCAUGUGCGG", "log2 enrichment": -0.411}
{"Sequence": "UAACUUUAGAGGAGGAUCUGAUGGAUAUGGCAGUGGACGUGGAUUUGGGGAUGGCUAUCAUGGGUAUGGAGGAGGACCUGGAGGUGGCAA", "log2 enrichment": -0.194}
